Measured values collected from several papers.
Compare with care: the assays were run in different laboratories. Values joined by “and” are separate records of one study, mostly repeats; a detail may differ. ± marks the error that the study gave. ≈ marks a conversion by molar mass, not a printed value.

Cc1ncsc1-c1ccc(C(C)NC(=O)C2CC(O)CN2C(=O)C(NC(=O)CCCCCCCCCCN2CCCC(Nc3ncc(Cl)c(Nc4ccccc4S(=O)(=O)C(C)C)n3)C2)C(C)(C)C)cc1 (centres unmarked) — log2 fold change (22Rv1; RNA-seq, refers to: MGME1 mRNA; concentration not given; relative to: DMSO): -1.18
CC(C)C[C@H](NC(=O)[C@H](Cc1ccc(O)cc1)NC(=O)[C@@H](CCCNC(=N)N)NC(=O)[C@@H](CO)NC(=O)[C@H](Cc1ccccc1)NC(=O)[C@H](CC1CCCCC1)NC(=O)[C@H](CC(=O)O)NC(=O)CN1CCN(CC(=O)O)CCN(CC(=O)O)CCN(CC(=O)O)CC1)C(=O)N[C@@H](Cc1c[nH]c2ccccc12)C(=O)N[C@@H](CO)C(=O)O [copper-64 labelled] — activity concentration (human, thyroid; concentration not given, 1 h): 3190 Bq/mL and 4570 Bq/mL and 3040 Bq/mL and 2570 Bq/mL and 1980 Bq/mL and 3230 Bq/mL
CC(C)c1ccc(N(C)c2ccc3c(c2)OCC[C@H]3CNc2cnccc2C(=O)O)cc1 — IC50 (TF-1; cell growth or viability, ATP luminescence; 7 days): 2.59 nM
CCCC[C@H](NC(=O)CCCCCCCNC(=O)CN1CCN(CC(=O)O)CCN(CC(=O)O)CC1)C(=O)N[C@H]1CC(=O)NCCCC[C@@H](C(N)=O)NC(=O)[C@H](Cc2c[nH]c3ccccc23)NC(=O)[C@H](CCCNC(=N)N)NC(=O)[C@@H](Cc2ccccc2)NC(=O)[C@H](Cc2c[nH]cn2)NC1=O [technetium-99m labelled] — tissue uptake (C57 mouse, blood; intravenous, 0.037 MBq, 4 h): 0.04 ± 0.03 %ID/g
CCN(CC)CC(=O)Nc1cccc(-n2cc(-c3ccc4ccc(-c5cn(-c6cccc(NC(=O)CN(CC)CC)c6)nn5)cc4c3)nn2)c1 — fold regulation (RCC4; PCR angiogenesis array, refers to: EPHB4; 5 x IC50, 2 h, normoxia; relative to: untreated): -1.11
CCOc1cc(CN2CCCC(CNC(=O)c3ccc(F)cc3)C2)ccc1OC (centres unmarked) — translation activity (Trypanosoma cruzi; reporter mRNA translation, inhibitor, refers to: Renilla luciferase mRNA; cell-free extract; concentration not given, test 3; relative to: positive over negative control): 108%
COC1CN([C@H]2CC[C@H]([C@@]3(C)Oc4c(Cl)cc(C(=O)NCc5c(SC)cc(C)[nH]c5=O)c(C)c4O3)CC2)C1 — log2 fold change (RNA-seq, refers to: EPN2; human, whole blood; dose not given, 24 h; relative to: pretreatment baseline): 1.61
Cc1ccc(SCCOCCN2CC(C)OC(C)C2)cc1.Cl (centres unmarked) — translation activity (Trypanosoma cruzi; reporter mRNA translation, inhibitor, refers to: Renilla luciferase mRNA; cell-free extract; concentration not given, test 1; relative to: positive over negative control): 99% and 102%
CN1CCCNC(=O)c2cccc(c2)C(=O)NCCCN(C)CCCNc2cccc3c2C(=O)c2cccc(c2C3=O)NCCC1 — log2 fold change (SAS; RNA-Seq, refers to: EIF2S3 mRNA; 1 µM, 24 h; relative to: untreated cells): -1.89
CCOc1cncc(-c2ccc(NC(=O)C3(c4ccnc(NS(=O)(=O)C5CC5)n4)CCOCC3)nc2)n1 — IC50 (KLE; cell proliferation, CellTiter-Glo; 72 h): 10000 nM
C=C(NC(=O)c1csc(-c2nc3c(cc2O)-c2nc(cs2)C(=O)NC(C(C)O)C(=O)NC(=C(C)OC)c2nc(cs2)C(=O)NC2c4nc(cs4)C(=O)NC(COC(=O)c4c5c6c(cccc6n4O)COC(=O)C(OC4CC(C)(O)C(N(C)C)C(C)O4)C2OC5)c2nc-3cs2)n1)C(N)=O (centres unmarked) — MIC50 (Staphylococcus epidermidis; methicillin-resistant, 10 isolates; serum 50%): 0.0312 µg/mL (≈ 0.0217 µM)
CNS(=O)(=O)Nc1nccc(Cc2c(C)c3ccc(Oc4ncccc4F)cc3oc2=O)c1F — IC50 (JeKo-1; cell viability; 7 days): > 1000 nM
Nc1ncc(-c2cc(-c3cnn(CC(F)(F)F)c3)ncc2F)nc1C(=O)NC1CNCC(F)C1 (centres unmarked) — remaining binding (EPHA7; KINOMEscan; 1 µM; relative to: DMSO control): 100%
C=CC(=O)Nc1cccc(Cn2ncc3cnc(Nc4cnn(CCOC)c4)nc32)c1 — percent of control (BUB1 human; binding, KINOMEscan; 100 nM; lower = stronger binding): 86%

For quick reference, copied from above:
COC1CN([C@H]2CC[C@H]([C@@]3(C)Oc4c(Cl)cc(C(=O)NCc5c(SC)cc(C)[nH]c5=O)c(C)c4O3)CC2)C1 — log2 fold change (RNA-seq, refers to: EPN2; human, whole blood; dose not given, 24 h; relative to: pretreatment baseline): 1.61
